Measurements collected from several papers.
Compare with care: the assays were run in different laboratories.

SMILES	test system	setting	Tmax [min]
CN(C)C(CNC(=O)Nc1cc(C(F)(F)F)ccc1N1CCOCC1)c1ccncc1 (centres unmarked)	C57BL/6 mouse, plasma	intraperitoneal, 2 mg/kg, single dose	60
CN1CC[C@H](c2c(O)cc(O)c3c(=O)cc(/C=C/c4c(Cl)cccc4Cl)oc23)[C@H](O)C1	male BALB/c mouse, plasma	oral, 50 mg/kg	120
Cc1cccc(O[C@H]2CCC[C@@H](C(C)CNCc3ccncc3)C2)c1 (relative stereo)	female C57BL/6 mouse, plasma	intravenous, 3 mg/kg	4.8
Cc1ccc2oc(-c3c4c(N)n[nH]c(=O)c4nn3-c3ccc(NC(=O)/C=C/CN(C)C)cc3)c(C)c2c1	mouse, plasma	intraperitoneal, 3 mg/kg	21
Cc1nc(NC(=O)N2CCC[C@H]2C(N)=O)sc1-c1csc(C(C)(C)C)n1	male CD-1 mouse, plasma	intraperitoneal, 10 mg/kg, single dose	30
C[N+]1(CC(=O)OC2CCCCCCCCCCC2)CCCCC1	mouse, plasma	intraperitoneal, 5 mg/kg, single dose	120
N#Cc1cnc2cc(OCC3CCNCC3)c(F)cc2c1Nc1cc(F)c(OCc2cccc(Cl)n2)cc1Cl	female CD-1 mouse, plasma	oral, 20 mg/kg	102
CC(C)(O)c1ccc(N2Cc3c(ccnc3-c3ccc(F)cc3OCC(F)(F)F)C2=O)cc1	male C57BL/6 mouse, plasma	oral, 10 mg/kg, single dose	60
O=C1C2=C(CCN(Cc3ccccc3)C2)N2CCN=C2N1Cc1ccc(C(F)(F)F)cc1	female CD-1 mouse, plasma	oral, 50 mg/kg	34.8
CN1CCc2cc(Nc3ncc(C(F)(F)F)c(NCc4cc[nH]n4)n3)ccc2C1	C57BL/6 mouse, brain	oral, 50 mg/kg, single dose	50
O=C1OC2(c3ccccc31)c1cc(I)c(O)c(I)c1Oc1c2cc(I)c(O)c1I	female C57BL/6 mouse, plasma	oral, 100 mg/kg	24
COC(=O)C1OC(Oc2c(-c3ccccc3)oc3cc(O)c(O)c(O)c3c2=O)C(O)C(O)C1O (centres unmarked)	BALB/c mouse, plasma	oral, 10 mg/kg, single dose	15
NS(=O)(=O)NCC(F)(F)c1ccccc1F	mouse, brain	oral, 5 mg/kg	60
CCCCCCCCCCCCCCCC(=O)N[C@@H](CCC(=O)N[C@@H](CCC(=O)NCCCC[C@H](NC(=O)[C@H](CC(=O)O)NC(=O)[C@H](CO)NC(=O)[C@@H](NC(=O)[C@H](Cc1ccccc1)NC(=O)[C@@H](NC(=O)CNC(=O)[C@H](CCC(N)=O)NC(=O)C(C)(C)NC(=O)[C@@H](N)Cc1c[nH]cn1)[C@@H](C)O)[C@@H](C)CC)C(=O)N[C@@H](CO)C(=O)N[C@@H](CCCCN)C(=O)N[C@@H](Cc1ccc(O)cc1)C(=O)N[C@@H](CC(C)C)C(=O)N[C@@H](CC(=O)O)C(=O)NC(C)(C)C(=O)N[C@@H](CCCNC(=N)N)C(=O)N[C@@H](C)C(=O)N[C@@H](C)C(=O)N[C@@H](CCC(N)=O)C(=O)N[C@@H](CC(=O)O)C(=O)N[C@@H](Cc1ccccc1)C(=O)N[C@H](C(=O)N[C@@H](CCC(N)=O)C(=O)N[C@@H](Cc1c[nH]c2ccccc12)C(=O)N[C@@H](CC(C)C)C(=O)N[C@@H](CCSC)C(=O)N[C@@H](CC(=O)O)C(=O)N[C@H](C(=O)O)[C@@H](C)O)C(C)C)C(=O)O)C(=O)O	male C57BL/6 mouse, plasma	subcutaneous, 10 nmol/kg, single dose	180
CCC(=C(c1ccc(Cl)cc1)c1ccc(OCCN2CCOCC2)cc1)c1ccc(OC)cc1	female C57BL/6 mouse, plasma	oral, 400 mg/kg, single dose	30
Cc1cc(O)cc(O)c1C(=O)c1c2c3c(c(O)cc(C)c3oc1=O)C(=O)c1c(O)cc(O)cc1-2	male Kunming mouse, plasma	intraperitoneal, 15 mg/kg	15.3
CN1CCC(N[C@@H]2CCc3[nH]c4c(C(N)=O)ccc(-c5ccccc5Cl)c4c3C2)CC1	mouse, plasma	intravenous, 2 mg/kg	1.98
Fc1ccc2[nH]ccc2c1-c1nc(N2CCOCC2)c2sc(CN3CCN(CC4CC4)CC3)cc2n1	female BALB/c mouse, plasma	oral, 75 mg/kg, single dose	60
CCOc1c(C(C)(C)O)sc2cnc(Nc3ccc(N4CCC(N5CC6(COC6)C5)CC4)cc3OC)nc12	male C57BL/6 mouse, plasma	oral, 10 mg/kg	60
Brc1ccccc1-c1nnc(CSc2nnnn2-c2ccccc2)o1	male C57BL/6 mouse, plasma	intraperitoneal, 10 mg/kg	15

For quick reference, copied from above:
SMILES	test system	setting	Tmax [min]
CN(C)C(CNC(=O)Nc1cc(C(F)(F)F)ccc1N1CCOCC1)c1ccncc1 (centres unmarked)	C57BL/6 mouse, plasma	intraperitoneal, 2 mg/kg, single dose	60
